Experimental data from different studies.
Protocols differ between the studies behind these lines. Values joined by “and” are separate records of one study, mostly repeats; a detail may differ. ± marks the error that the study gave.
UCHL1: Ubiquitin carboxyl-terminal hydrolase isozyme L1 (UCHL1, Homo sapiens, UniProt P09936)
UniProt P09936, sequence (whole entry, looked up): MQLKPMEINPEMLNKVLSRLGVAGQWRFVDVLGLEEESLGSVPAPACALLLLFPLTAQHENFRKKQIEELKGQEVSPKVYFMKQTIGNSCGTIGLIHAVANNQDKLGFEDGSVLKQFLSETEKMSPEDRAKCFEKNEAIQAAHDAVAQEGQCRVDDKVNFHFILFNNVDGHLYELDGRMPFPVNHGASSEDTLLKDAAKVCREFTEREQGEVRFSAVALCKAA
UniProt P10632, sequence (whole entry, looked up): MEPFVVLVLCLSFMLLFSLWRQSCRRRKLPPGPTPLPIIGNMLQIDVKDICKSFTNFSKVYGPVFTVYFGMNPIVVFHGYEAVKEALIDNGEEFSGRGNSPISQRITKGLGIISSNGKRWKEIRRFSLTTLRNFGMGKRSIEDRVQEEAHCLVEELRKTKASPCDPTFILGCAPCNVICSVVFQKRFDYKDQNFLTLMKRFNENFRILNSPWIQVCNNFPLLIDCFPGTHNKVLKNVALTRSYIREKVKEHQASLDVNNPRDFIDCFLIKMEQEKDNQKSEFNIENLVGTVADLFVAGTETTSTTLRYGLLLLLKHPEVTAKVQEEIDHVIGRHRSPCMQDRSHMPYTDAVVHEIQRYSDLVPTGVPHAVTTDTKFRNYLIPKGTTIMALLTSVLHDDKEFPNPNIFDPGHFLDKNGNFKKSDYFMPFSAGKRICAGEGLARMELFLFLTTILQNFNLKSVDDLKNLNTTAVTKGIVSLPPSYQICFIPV
UniProt P61823, sequence (whole entry, looked up): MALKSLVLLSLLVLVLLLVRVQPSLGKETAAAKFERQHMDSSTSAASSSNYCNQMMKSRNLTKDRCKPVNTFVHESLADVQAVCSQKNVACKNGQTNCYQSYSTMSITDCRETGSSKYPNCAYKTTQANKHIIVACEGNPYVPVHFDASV

Compound	target or system	test	test system	conditions	how to read	endpoint	value
Cc1cc(Nc2ncnc3ccc(NC4=NC(C)(C)CO4)cc23)ccc1Oc1ccn2ncnc2c1	Cytochrome P450 2C8 (CYP2C8, Homo sapiens, UniProt P10632)	–	human, plasma	oral, 300 mg single dose, day 1, arithmetic mean	–	AUC(0-last)	2.66 µg·h/mL
CC(C)n1ncc2c(C(=O)NCC3(C)CNC3)cc(C3CC3)nc21	Enterovirus D68	viral replication	RD, US/MO/14-18947	0.001 µM	reference: untreated	plaque area	106% and 94.1%
C[n+]1cc2c3c(ccc2c2ccc4cc5c(cc4c21)OCO5)OCO3	Toxoplasma gondii	parasite growth, luciferase reporter	HFF host cells, tachyzoites	72 h	–	EC50	0.3 µM
C[C@H]1C[C@H]2CSC(N)=N[C@@]2(c2nc(NC(=O)c3ccc(OC(F)F)cn3)cs2)CO1	–	measured: total Aβ	healthy adults, plasma	125 mg once daily, day 14	reference: placebo	percent change from baseline	-59.1%
O=C(Nc1ccncc1)c1cc([N+](=O)[O-])ccc1Cl	Toxoplasma gondii	bradyzoite growth	–	pH 8.2, alkaline-induced bradyzoites	–	EC50	0.64 µM
CC(C)C[C@H](NC(=O)C[C@H](O)[C@H](CC(C)C)NC(=O)[C@H](Cc1c[nH]cn1)NC(=O)CNC(=O)[C@@H](NC(=O)[C@H](C)NC(=O)[C@H](Cc1c[nH]c2ccccc12)NC(=O)[C@H](CCC(N)=O)NC(=O)[C@@H](Cc1ccccc1)NC(=O)COCCOCCNC(=O)CCC(C(=O)O)N1CCN(CC(=O)O)CCN(CC(=O)O)CCN(CC(=O)O)CC1)C(C)C)C(N)=O (stereo partly shown) [lutetium-177 labelled]	–	–	BALB/c nu/nu mice, bladder	intravenous, 250 pmol, 1 h, together with: PA 300 µg	–	tissue uptake	58 ± 36 %ID/g
COc1cccc(C(=O)C#Cc2ccc(F)c(F)c2)c1	Pseudomonas aeruginosa	RT-qPCR, measured: lasB	biofilm cells	10 µM, 24 h	reference: untreated	mRNA level	47%
CC(C)[C@H](NC(=O)[C@H](Cc1ccc(O)cc1)NC(=O)[C@H](Cc1ccc(O)cc1)NC(=O)[C@@H]1CCCN1C(=O)[C@H](CCC(=O)O)NC(=O)[C@H](CCC(=O)O)NC(=O)[C@H](Cc1c[nH]c2ccccc12)NC(=O)[C@@H]1CCCN1C(=O)[C@@H](NC(=O)[C@H](CCC(N)=O)NC(=O)c1ccc2c(c1)C(=O)OC21c2ccc(O)cc2Oc2cc(O)ccc21)C(C)C)C(=O)N[C@H](C(=O)N[C@@H](CCCCN)C(=O)N[C@@H](CCCCN)C(=O)N[C@@H](CO)C(=O)N[C@@H](CO)C(=O)NCC(=O)NCC(N)=O)C(C)C	–	–	human, plasma	intravenous infusion, 600 mg, predose, day 1	–	plasma concentration	not detected
CC[C@H]1CN2CCc3cc(OC)c(OC)cc3[C@@H]2C[C@@H]1C[C@H]1NCCc2cc(OC)c(OC)cc21	Toxoplasma gondii	parasite growth, luciferase reporter	HFF, tachyzoite	72 h	–	EC90	0.172 µM
C[C@H](Oc1ccc(Br)cc1-c1ccon1)C(=O)O	–	muscle velocity recovery cycles	human, tibialis anterior muscle	400 mg twice daily, multiple doses, frequency ramp, first response at 15 Hz	reference: placebo	latency change	0.505%
NS(=O)(=O)c1ccc(CNc2nc(Nc3cccc(CN4CCOCC4)c3)ncc2C2CC2)cc1	403 human wild-type kinases	scanMAX	–	–	PoC below 10	number of kinases bound	3
Oc1ccccc1-c1n[nH]cc1-c1ccnc2ccccc12	BUB1 (Candida albicans)	kinase binding, MIB/MS competition	Candida albicans lysate	1 µM	reference: DMSO	log2 fold change	0.07
Cc1ccc(S(=O)(=O)/C=C/C#N)cc1	Toxoplasma gondii	parasite growth, luciferase reporter	HFF, tachyzoite	72 h	–	EC50	13.8 µM
C#CCN1C(=O)C2(C(C#N)=C(N)OC3=C2C(=O)CC(C)(C)C3)c2ccccc21 (stereo not shown)	UCHL1	covalent, intact protein LC-MS	–	12.5 µM	–	labelling	16.1%
O=c1[nH]cc(F)c(=O)[nH]1	Toxoplasma gondii	parasite growth, luciferase reporter	HFF, tachyzoite	72 h	–	EC50	0.677 µM
N#CC(=Cc1ccc(Cl)cc1Cl)C(N)=O	UCHL1	covalent, intact protein LC-MS	–	12.5 µM	–	labelling	38.9%
COc1cc(C#CC(=O)c2ccccc2OC)ccc1O	Pseudomonas aeruginosa	static biofilm	PA14	10 µM, 24 h, static	reference: DMSO	biofilm formation	70%
NC(=O)c1cnc2[nH]ccc2c1N[C@@H]1[C@@H]2CC3C[C@H]1C[C@@](O)(C3)C2	–	flow cytometry, measured: CD4+ memory T cells	Japanese healthy subjects, peripheral blood	oral, 10 mg twice daily, day 7	–	change from baseline	0.95%
COc1cc(C#CC(O)c2ccccc2)ccc1O (stereo not shown)	Pseudomonas aeruginosa	static biofilm	PA14	10 µM, 24 h, static	reference: DMSO	biofilm formation	51%

Compound	target or system	test	test system	conditions	how to read	endpoint	value
CC(=O)[C@]1(O)Cc2c(O)c3c(c(O)c2[C@@H](O[C@H]2C[C@H](N)[C@H](O)[C@H](C)O2)C1)C(=O)c1ccccc1C3=O	Toxoplasma gondii	parasite growth, luciferase reporter	HFF host cells, tachyzoites	72 h	–	EC50	0.19 µM
COc1cc(C#CC(=O)c2ccccc2C)ccc1O	Pseudomonas aeruginosa	static biofilm	PA14	10 µM, 24 h	reference: DMSO	biofilm formation	75%
CC[C@H]1[C@@H](O)[C@@H]2[C@H](CC[C@]3(C)[C@@H]([C@H](C)CCNC(=O)NS(=O)(=O)c4ccc(C(C)(C)C)cc4)CC[C@@H]23)[C@@]2(C)CC[C@@H](O)C[C@@H]12	ABCB1 (Homo sapiens, UniProt P08183)	substrate	human, plasma	dose not given, together with: quinidine	–	AUC(0-t) geometric mean	0.366 µg·h/mL
O=C(O)CNC(=O)Cc1ccccc1	–	–	ventricular cardiomyocytes, C57BL/6 mouse	dose not given, 0.496 s	–	sarcomere length	1.64 µm
COc1cc(/C=C/C(=O)N2CCC=CC2=O)cc(OC)c1OC	Toxoplasma gondii	parasite growth	HFF, bradyzoite, glutamine-induced	–	–	EC50	3.36 µM
Cc1cc(Nc2ccc(S(F)(F)(F)(F)F)cc2)n2nc(C(C)(F)F)nc2n1	Plasmodium vivax	12-lead Holter ECG	human malaria patients	oral, 400 mg, QTc above 500 ms	–	patients with QTcF above threshold	0%
OC(CCN1CCCCC1)(c1ccccc1)C1CC2C=CC1C2 (stereo not shown)	Toxoplasma gondii	parasite growth, luciferase reporter	HFF, tachyzoite	72 h	–	EC90	1970 µM
Cn1cc(-c2ccc(-c3cncc(Cl)c3N3CCC4(CCNC4=O)CC3)cc2)cn1	COLO 205	gene expression, microarray, measured: MMP2 mRNA	–	concentration not given, 6 h	reference: untreated cells	log2 fold change	1.71
O=C(C#Cc1ccc(F)c(F)c1)c1ccccc1Cl	Pseudomonas aeruginosa	static biofilm	PA14	10 µM, 24 h, static	reference: DMSO	biofilm formation	50%
c1coc(-c2n[nH]cc2-c2ccnc3ccccc23)c1	RCK2 (Candida albicans)	kinase binding, MIB/MS competition	Candida albicans lysate	1 µM	reference: DMSO	log2 fold change	-0.25
CCCC(=O)C#Cc1ccc(O)c(OC)c1	Pseudomonas aeruginosa	static biofilm	PA14	10 µM, 24 h, static	reference: DMSO	biofilm formation	65%
OC[C@H]1O[C@@H]2O[C@H]3[C@H](O)[C@@H](O)[C@@H](O[C@H]4[C@H](O)[C@@H](O)[C@@H](O[C@H]5[C@H](O)[C@@H](O)[C@@H](O[C@H]6[C@H](O)[C@@H](O)[C@@H](O[C@H]7[C@H](O)[C@@H](O)[C@@H](O[C@H]8[C@H](O)[C@@H](O)[C@@H](O[C@H]1[C@H](O)[C@H]2O)O[C@@H]8CO)O[C@@H]7CO)O[C@@H]6CO)O[C@@H]5CO)O[C@@H]4CO)O[C@@H]3CO	LuxR	Escherichia coli sensor	–	200 µM	higher = stronger induction	bioluminescence induction	885 ± 26 RLU
OC(CCN1CCCCC1)(c1ccccc1)C1CC2C=CC1C2 (stereo not shown)	–	resting-state EEG	healthy elderly humans	oral, 4 mg, eyes open, LS mean	reference: baseline	change in EEG Beta3-power Fz-Cz	10.1%
Nc1ccn([C@@H]2O[C@H](COP(=O)(O)OP(=O)(O)O)[C@@H](O)[C@H]2O)c(=O)n1	RNASE1 (Bos taurus, UniProt P61823)	binding, native MS titration	–	–	–	Kd	4.1 ± 0.2 µM
Cc1ccc(C(=O)C#Cc2ccc(F)c(F)c2)cc1	Pseudomonas aeruginosa	static biofilm	PA14	10 µM, 24 h	reference: DMSO	biofilm formation	53%
CC(C)NCC(O)c1ccc(O)c(O)c1 (stereo not shown)	–	–	ventricular cardiomyocytes, C57BL/6 mouse	dose not given, 0.04 s	–	sarcomere length	1.72 µm
CNC(=O)c1ccc(-c2cnc3ncc(Cc4ccc5ncccc5c4)n3n2)cc1F	–	CTCAE v4.0, any causality	human hepatocellular carcinoma patients	oral, 600 mg twice daily, expansion cohort at RP2D	–	dry mouth incidence (all grades)	0%
COc1cc(C#CC(=O)C(C)C)ccc1O	Pseudomonas aeruginosa	static biofilm	PA14	10 µM, 24 h	reference: DMSO	biofilm formation	76%
